Assay results collected from several papers.
Each numbered part is a random draw from the data of one study; scales do not carry over between parts. Positions count from the first letter of the parent shown.

Block 1
Target: CCNE2, cyclin fold, Cln2 fusion (human)
Method: yeast growth competition, sequencing
Matrix: yeast
Notes: strong parent motif
Baseline: not given
Reading: higher = stronger binding
Endpoint: normalised enrichment score
Starting sequence: NPAT docking peptide (human); PCHRRVLCFDSTT; partner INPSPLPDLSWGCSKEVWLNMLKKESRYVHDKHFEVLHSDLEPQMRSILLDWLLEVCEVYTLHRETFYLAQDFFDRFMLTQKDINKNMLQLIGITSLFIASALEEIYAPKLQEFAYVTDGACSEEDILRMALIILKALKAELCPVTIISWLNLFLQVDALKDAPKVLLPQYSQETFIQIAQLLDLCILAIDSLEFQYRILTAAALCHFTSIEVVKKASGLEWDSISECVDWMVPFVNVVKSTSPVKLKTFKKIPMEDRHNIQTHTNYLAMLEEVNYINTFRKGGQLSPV
PCHRRVLCFASTT [D10A]: 1.63
PCARRVLCFDSTT [H3A]: 2.95
PCHRRVLAFDSTT [C8A]: 1.35
PCHRRVLCFDSAT [T12A]: 2.05
PCHRRVLCFDATT [S11A]: 1.31
PCHRAVLCFDSTT [R5A]: 0.138
PCHRRVLCLDSTT [F9L]: 0.41

Block 2
Target: RING finger protein unkempt homolog, zinc fingers 1-6, GST-SBP tag (UNK, Homo sapiens, UniProt Q9C0B0, residues 30-357)
UniProt Q9C0B0, sequence (30-357, looked up): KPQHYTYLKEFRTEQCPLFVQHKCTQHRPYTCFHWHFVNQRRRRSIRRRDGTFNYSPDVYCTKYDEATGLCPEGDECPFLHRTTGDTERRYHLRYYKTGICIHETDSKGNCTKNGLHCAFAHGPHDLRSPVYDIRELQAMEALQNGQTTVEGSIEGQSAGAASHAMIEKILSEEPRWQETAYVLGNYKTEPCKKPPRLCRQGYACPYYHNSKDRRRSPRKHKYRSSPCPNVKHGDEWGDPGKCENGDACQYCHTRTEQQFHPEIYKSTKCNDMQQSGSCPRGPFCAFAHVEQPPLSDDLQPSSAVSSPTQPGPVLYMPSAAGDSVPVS
Method: RNA Bind-n-Seq
Molecule type: RNA
Matrix: in vitro
Concentration: not given
Notes: RNA with constant flanks, human and mouse sites, ends assumed
Baseline: input RNA pool
Reading: higher = stronger binding
Endpoint: bound/input enrichment
All sequences stand within: GGGAGUUCUACAGUCCGACGAUC … CAACAGAGGAUUGAGCAUCA
AUGGCAUAAAAUGUACCUUUGUUCUUAUUGUAUAAUAUUGAGGCUAUUACUAAUUAUUCAUAUAGGUCCCAGCAACAGAUAGAAAUGCUUUAAGUUCGCUCUGGGGAAAACUGGCCUCUG: 0.83 ratio
AAUUUAAUUAAAAUUCAGGCUAUAGCUGUUUGUAUGGAAAAUGGCAACUUUAAAGAAGCAGAAGAAGUCUUUGAAAGAAUAUUUGGUGAUCCAAAUUCUCAUAUGCCUUUCAAAAGCAAA: 0.871 ratio
AAAAAGAUUGACCUGCAGAAAAAACAGACUCAGAGAAAUGUGUUCAGGUGUAAUGUAAUUGGAGUGAAAGGCUGUGGGAAAACUGGAGUUCUUCAGUCUCUCCUUGGAAGAAACCUAAUG: 0.222 ratio
GCUCUUUCUCAUUCACCAACUAUAUUAGAAGCACUUGAGGGAAAUUUACCACUCCAAAUCCAAAGCAAUGAACAGUCUUUUCUGGAUGAUUUUAUUGCCUGUGUCCCAGGAUCAAGUGGU: 0.377 ratio
GUAAAUCAUAUGGAUGGAGAAAGCCUCAAACUCCGAUCUCUUCGAGUUAACGUAGGACAACUGCUGGCUAUGAUUGUGCCUGAUCUUGAUCUUCAGCAAGUGAAUUACGAUGUUGAUGUA: 0.211 ratio
GGGGAGGGGGACCUGCACACACCCAUGCUGAAGCUCUCCUAUAGUACCUCACAAGAAUUUAGCUCCCGGGAGGAGCUGCUGUCCCACAAAGAAGAGGAUAAAAGCCAAACAUCUUUUGAU: 1.1 ratio

Block 3
Target: Histone acetyltransferase KAT6A, winged helix 2, GST fusion (KAT6A, Homo sapiens, UniProt Q92794, residues 85-181)
Method: protein binding microarray
Molecule type: double-stranded DNA, one strand shown
Matrix: in vitro
Concentration: not given
Notes: 8-mer, flanks averaged, mean of 2 arrays, mostly near background
Baseline: not given
Reading: higher = stronger binding
Endpoint: E-score
Construct (chain): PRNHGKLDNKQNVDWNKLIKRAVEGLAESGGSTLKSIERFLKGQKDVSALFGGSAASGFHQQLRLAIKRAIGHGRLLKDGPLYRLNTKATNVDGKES
ACGATCGC: -0.145
CATATATA: 0.0147
AGACCGTC: -0.169
GAGTAAGA: 0.163
ACCACTAA: 0.0683
AGTGGCGA: 0.164
GGCATTTA: -0.105
CCTGTGGA: -0.0272
CATCCATC: -0.226
GTAGTAAC: -0.0704

Mixed results
PhoQ, residues 284 288 289 292 302 303 SQSLSM
fold induction (PhoP, residues 12 14 15 18 19 TTLRV (Escherichia coli, UniProt P23836); Sort-seq, measured: YFP reporter; E. coli; PhoQ-PhoP variant library, with: 10 µM Mg2+; baseline: high Mg2+ state, higher = stronger signaling): 1.4

A few entries again (block 3):
AGACCGTC: -0.169
GAGTAAGA: 0.163
ACCACTAA: 0.0683
AGTGGCGA: 0.164
